Published values pooled from the literature.
Lines come from different studies, so protocols differ. ± gives the spread as reported.

Structure (SMILES) = NC[C@@]1(CC(=O)O)[C@@H]2CC[C@H]3C[C@@H]2[C@@H]1C3; system = human, severe renal impairment, plasma; conditions = dose not given; how to read = baseline: normal renal function; endpoint = unbound Cmax increase; result = 21.7%
Structure (SMILES) = CCn1c(=O)c(-c2cc(NC(=O)Nc3ccccc3)c(F)cc2Br)cc2cnc(N)cc21; test = ultracentrifugation; system = human, hepatic impairment severe or matched healthy, plasma; conditions = oral, 50 mg single dose; endpoint = unbound fraction at Cmax; result = 0.167%
Structure (SMILES) = C#C[C@]1(OC(C)=O)CC[C@H]2[C@@H]3CCC4=CC(=NO)CC[C@@H]4[C@H]3CC[C@@]21CC (mixture of isomers); system = human, plasma; endpoint = unbound fraction; result = 0.0026
Structure (SMILES) = N#Cc1ccc(C(c2ccc(C#N)cc2)n2cncn2)cc1; system = human patients, plasma; conditions = oral, 2.5 mg daily; endpoint = unbound Cmax at steady state; result = 0.14 ± 0.02 µM
Structure (SMILES) = Nc1nc(-n2cc(C(=O)O)c(=O)c3cc(F)c(N4CC(O)C4)c(Cl)c32)c(F)cc1F; system = human, plasma; conditions = 450 mg; endpoint = unbound Cmax; result = 2.7 µM
Structure (SMILES) = CC#CC(=O)N1CCC[C@H]1c1nc(-c2ccc(C(=O)Nc3ccccn3)cc2)c2c(N)nccn12; test = noncompartmental analysis; system = human, control subjects, plasma; conditions = oral, 50 mg, geometric mean; endpoint = unbound Cmax; result = 1.2 ng/mL
Structure (SMILES) = CO[C@H]1C[C@@H]2CC[C@@H](C)[C@@](O)(O2)C(=O)C(=O)N2CCCC[C@H]2C(=O)O[C@H]([C@H](C)C[C@@H]2CC[C@@H](OC(=O)NCCOCCOCCOCCOCCOCCOCCOCCOCCC(=O)N3CCc4cc(Cn5nc(-c6ccc7oc(N)nc7c6)c6c(N)ncnc65)ccc4C3)[C@H](OC)C2)C[C@@H](O)[C@H](C)/C=C(\C)[C@@H](O)[C@@H](OC)C(=O)[C@H](C)C[C@H](C)/C=C/C=C/C=C/1C; system = human, plasma; conditions = intravenous, 10 mg, Cycle 1 Day 15, 1 h infusion; endpoint = unbound AUClast; result = 22.3 nM·h
Structure (SMILES) = O=[N+]([O-])c1cn2c(n1)OC[C@@H](OCc1ccc(N3CCOCC3)nc1)C2; system = human; endpoint = unbound fraction; result = > 0.7
Structure (SMILES) = CC(C)N(CCCCOCC(=O)NS(C)(=O)=O)c1cnc(-c2ccccc2)c(-c2ccccc2)n1; system = human, plasma; conditions = 1.6 mg; endpoint = unbound Cmax; result = 0.00512 µM
Structure (SMILES) = Cc1cc(C)c(NC(=O)CN(CC(=O)[O-])CC(=O)[O-])c(C)c1Br.Cc1cc(C)c(NC(=O)CN(CC(=O)[O-])CC(=O)[O-])c(C)c1Br.[99Tc+4]; test = ultrafiltration; system = human, blood; conditions = dose not given; endpoint = unbound fraction; result = 0.03
Structure (SMILES) = O=[N+]([O-])c1cn2c(n1)OC[C@@H](OCc1ccc(N3CCOCC3)c(F)c1)C2; system = human; endpoint = unbound fraction; result = 0.49
Structure (SMILES) = C[C@H]1CNC(=O)c2cnn3ccc(nc23)N[C@H](C)c2cc(F)ccc2O1; system = human, plasma; conditions = concentration not given, steady state recommended dose; endpoint = unbound average concentration; result = 39 nM
Structure (SMILES) = CCn1c(=O)c(-c2cc(NC(=O)Nc3ccccc3)c(F)cc2Br)cc2cnc(NC)cc21; test = ultracentrifugation; system = healthy human, matched to severe impairment, plasma; conditions = oral, 50 mg single dose; endpoint = unbound fraction at Cmax; result = 0.354%
Structure (SMILES) = CCO[C@H]1CCN(Cc2c(OC)cc(C)c3[nH]ccc23)[C@H](c2ccc(C(=O)O)cc2)C1; system = human mild hepatic impairment, plasma; conditions = oral, 200 mg single dose, median; endpoint = unbound Tmax; result = 1.88 h
Structure (SMILES) = CC(C)OC(=O)[C@H](C)N[P@](=O)(OC[C@H]1O[C@@H](n2ccc(=O)[nH]c2=O)[C@](C)(F)[C@@H]1O)Oc1ccccc1; system = human, plasma; conditions = 400 mg; endpoint = unbound Cmax; result = 0.445 µM
Structure (SMILES) = C#Cc1cccc(Nc2ncnc3cc(OCCOC)c(OCCOC)cc23)c1; system = human; conditions = mean; endpoint = unbound fraction in plasma; result = 0.065

Repeated from above:
Structure (SMILES) = CC(C)OC(=O)[C@H](C)N[P@](=O)(OC[C@H]1O[C@@H](n2ccc(=O)[nH]c2=O)[C@](C)(F)[C@@H]1O)Oc1ccccc1; system = human, plasma; conditions = 400 mg; endpoint = unbound Cmax; result = 0.445 µM
